{"data": "Experimental data of several laboratories", "target": "Dual specificity mitogen-activated protein kinase kinase 7 (MAP2K7, Homo sapiens, UniProt O14733)", "Residues used in one study (O14733 1-419)": "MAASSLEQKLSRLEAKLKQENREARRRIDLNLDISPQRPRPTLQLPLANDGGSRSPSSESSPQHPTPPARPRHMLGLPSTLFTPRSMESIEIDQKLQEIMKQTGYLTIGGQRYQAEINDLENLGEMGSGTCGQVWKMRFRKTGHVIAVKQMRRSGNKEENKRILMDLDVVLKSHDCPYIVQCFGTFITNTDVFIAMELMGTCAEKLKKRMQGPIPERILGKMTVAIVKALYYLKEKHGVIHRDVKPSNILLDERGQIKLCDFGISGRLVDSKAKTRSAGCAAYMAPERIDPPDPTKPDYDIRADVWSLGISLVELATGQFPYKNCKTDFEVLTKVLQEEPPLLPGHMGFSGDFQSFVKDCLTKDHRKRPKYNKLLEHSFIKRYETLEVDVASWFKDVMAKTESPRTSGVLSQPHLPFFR", "note": "Protocols differ between the studies behind these lines. Numbers after ± are the reported error."}
{"Compound": "C[C@@H](c1ccc(-n2cnc3c(N)ncnc32)cc1)N1CCc2nn(C)c(Cc3ccccc3)c2C1=O", "assay": "KINOMEscan", "setting": "0.1 µM", "scale": "baseline: DMSO control", "measurement": "remaining binding", "result": "73%"}
{"Compound": "O=C(NC1CCC1)c1ccc2nc(-c3cccc(NS(=O)(=O)NCCN4CCCCC4)c3)cn2c1", "assay": "enzyme activity", "setting": "10 µM", "measurement": "remaining activity", "result": "100%"}
{"Compound": "CCN1CCN(Cc2ccc(NC(=O)c3ccc(C)c(/C=C/c4cnc5[nH]ccc5c4OC)c3)cc2C(F)(F)F)CC1", "test system": "A-375", "setting": "0.5 µM", "measurement": "inhibition", "result": "-14%"}
{"Compound": "C=CC(=O)N1CCC[C@@H](n2nc(-c3ccc(Oc4ccccc4)cc3)c3c(N)ncnc32)C1", "assay": "kinase activity, inhibitor, HotSpot radiometric", "setting": "100 nM, added: ATP 10 µM", "measurement": "remaining activity", "result": "62.7 ± 0.6%"}
{"Compound": "CNCc1ccc(-c2cc(-c3nc(-c4ccc(S(=O)(=O)C(C)C)cc4)cnc3N)on2)cc1", "assay": "enzyme activity", "setting": "2 µM, added: ATP at Km", "measurement": "inhibition", "result": "0%"}
{"Compound": "Cc1ccc(NC(=O)c2ccc(C)c(C(F)(F)F)c2)cc1C#Cc1nn(C2CCC(O)CC2)c2ncnc(N)c12 (stereo not shown)", "assay": "enzyme activity", "setting": "10 µM, added: ATP 10 µM", "measurement": "remaining activity", "result": "70%"}
{"Compound": "Cc1cnc(NC2CCOCC2)nc1-n1cnc(C(=O)NC(CN)c2cc(F)cc(Cl)c2)c1 (stereo not shown)", "assay": "radiometric", "setting": "1 µM", "measurement": "remaining activity", "result": "104%"}
{"Compound": "Cc1cc(NC(=O)c2cccc3cc(-c4cccc5[nH]nc(N)c45)ccc23)ccc1F", "assay": "enzyme activity, kinase profiling panel", "setting": "0.1 µM", "measurement": "remaining activity", "result": "115%"}
{"Compound": "COc1ccc(F)cc1C(=O)NCc1ccc(-c2nn([C@@H](C)C(F)(F)F)c(N)c2C(N)=O)cc1", "assay": "kinase activity, inhibitor, HotSpot radiometric", "setting": "1000 nM, added: ATP at Km", "measurement": "remaining activity", "result": "103 ± 7.9%"}
{"Compound": "C=CC(=O)N1CCC(C(=O)NCC(=O)N2CCN(c3nc(-c4cnc(N)nc4C(F)F)nc(N4CCOCC4)n3)CC2)CC1", "assay": "KINOMEscan", "setting": "1 µM", "measurement": "remaining binding", "result": "98%"}
{"Compound": "CC/C(=N\\NC(=O)NCc1cccc(O)c1)c1ccc(O)c(C)c1O", "assay": "kinase activity", "setting": "0.1 µM", "measurement": "inhibition", "result": "-9.1%"}
{"Compound": "CC#CC(=O)N1CCC[C@H]1c1nc(-c2ccc(C(=O)Nc3ccccn3)cc2)c2c(N)nccn12", "assay": "kinase activity, inhibitor, HotSpot radiometric", "setting": "100 nM, added: ATP 10 µM", "measurement": "remaining activity", "result": "97.8 ± 1%"}
{"Compound": "CCCOc1ccc(OC)c(F)c1C(=O)c1ccc(C(=O)N[C@@H]2CNC[C@H]2NC(=O)c2ccc3[nH]ncc3c2)cc1", "assay": "enzyme activity", "setting": "10 µM", "measurement": "remaining activity", "result": "107%"}
{"note": "Repeated from above:"}
{"Compound": "C=CC(=O)N1CCC[C@@H](n2nc(-c3ccc(Oc4ccccc4)cc3)c3c(N)ncnc32)C1", "assay": "kinase activity, inhibitor, HotSpot radiometric", "setting": "100 nM, added: ATP 10 µM", "measurement": "remaining activity", "result": "62.7 ± 0.6%"}
{"Compound": "CNCc1ccc(-c2cc(-c3nc(-c4ccc(S(=O)(=O)C(C)C)cc4)cnc3N)on2)cc1", "assay": "enzyme activity", "setting": "2 µM, added: ATP at Km", "measurement": "inhibition", "result": "0%"}
